Values quoted from earlier work, collected from citations in different studies.
Numbers after ± are the reported error.
Histamine H3 receptor: Histamine H3 receptor (Cavia porcellus, UniProt Q9JI35)
UniProt Q9JI35, sequence (whole entry, looked up): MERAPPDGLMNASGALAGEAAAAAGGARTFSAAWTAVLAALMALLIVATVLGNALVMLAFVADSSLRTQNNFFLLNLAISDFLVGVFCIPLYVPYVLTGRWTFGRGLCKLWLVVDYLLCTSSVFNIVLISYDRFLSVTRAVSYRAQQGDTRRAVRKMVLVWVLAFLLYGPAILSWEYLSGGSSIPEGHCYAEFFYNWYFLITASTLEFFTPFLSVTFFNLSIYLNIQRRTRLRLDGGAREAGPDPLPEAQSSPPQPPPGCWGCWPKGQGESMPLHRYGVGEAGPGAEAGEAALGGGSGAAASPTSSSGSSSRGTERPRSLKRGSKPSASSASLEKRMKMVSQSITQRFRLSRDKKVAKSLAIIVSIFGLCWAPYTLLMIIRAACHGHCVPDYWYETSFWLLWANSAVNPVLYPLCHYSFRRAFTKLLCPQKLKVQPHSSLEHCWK
Slc6a2: Transporter (Slc6a2, Rattus norvegicus, UniProt Q63380)
Cytosol aminopeptidase: Cytosol aminopeptidase (Sus scrofa, UniProt P28839)
UniProt P28839, sequence (whole entry, looked up): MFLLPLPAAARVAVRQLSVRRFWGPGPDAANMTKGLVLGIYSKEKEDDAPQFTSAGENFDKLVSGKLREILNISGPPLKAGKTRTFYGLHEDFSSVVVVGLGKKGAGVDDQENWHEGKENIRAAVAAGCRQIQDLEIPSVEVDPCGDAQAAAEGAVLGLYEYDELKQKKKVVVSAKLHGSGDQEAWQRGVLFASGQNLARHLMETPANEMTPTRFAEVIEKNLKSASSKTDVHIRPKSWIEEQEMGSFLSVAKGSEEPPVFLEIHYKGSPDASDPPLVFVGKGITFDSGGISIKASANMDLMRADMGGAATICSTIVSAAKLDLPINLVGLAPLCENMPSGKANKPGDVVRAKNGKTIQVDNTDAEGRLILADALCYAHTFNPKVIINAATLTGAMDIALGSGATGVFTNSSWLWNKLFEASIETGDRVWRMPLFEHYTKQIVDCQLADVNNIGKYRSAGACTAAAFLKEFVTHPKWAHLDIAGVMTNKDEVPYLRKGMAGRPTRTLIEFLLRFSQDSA
CHRNA1/CHRNG/chrnd: CHRNA1/CHRNG/chrnd (Tetronarce californica, UniProt P02710+P02714+P02718)
UniProt P02718, sequence (whole entry, looked up): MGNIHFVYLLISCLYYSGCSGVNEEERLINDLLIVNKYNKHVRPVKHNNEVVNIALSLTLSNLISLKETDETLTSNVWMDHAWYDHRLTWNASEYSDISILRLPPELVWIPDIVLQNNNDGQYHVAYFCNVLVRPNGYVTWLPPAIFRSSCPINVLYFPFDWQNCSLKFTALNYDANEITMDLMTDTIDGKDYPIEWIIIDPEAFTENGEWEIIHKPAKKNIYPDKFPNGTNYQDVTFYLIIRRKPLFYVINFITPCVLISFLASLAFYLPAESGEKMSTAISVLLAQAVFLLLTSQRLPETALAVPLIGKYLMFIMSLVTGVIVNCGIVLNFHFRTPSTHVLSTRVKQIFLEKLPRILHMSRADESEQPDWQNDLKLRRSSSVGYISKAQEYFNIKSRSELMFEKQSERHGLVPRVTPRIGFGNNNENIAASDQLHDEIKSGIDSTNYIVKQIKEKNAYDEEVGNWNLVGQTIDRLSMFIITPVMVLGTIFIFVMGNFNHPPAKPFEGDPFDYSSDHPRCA
UniProt P02710, sequence (whole entry, looked up): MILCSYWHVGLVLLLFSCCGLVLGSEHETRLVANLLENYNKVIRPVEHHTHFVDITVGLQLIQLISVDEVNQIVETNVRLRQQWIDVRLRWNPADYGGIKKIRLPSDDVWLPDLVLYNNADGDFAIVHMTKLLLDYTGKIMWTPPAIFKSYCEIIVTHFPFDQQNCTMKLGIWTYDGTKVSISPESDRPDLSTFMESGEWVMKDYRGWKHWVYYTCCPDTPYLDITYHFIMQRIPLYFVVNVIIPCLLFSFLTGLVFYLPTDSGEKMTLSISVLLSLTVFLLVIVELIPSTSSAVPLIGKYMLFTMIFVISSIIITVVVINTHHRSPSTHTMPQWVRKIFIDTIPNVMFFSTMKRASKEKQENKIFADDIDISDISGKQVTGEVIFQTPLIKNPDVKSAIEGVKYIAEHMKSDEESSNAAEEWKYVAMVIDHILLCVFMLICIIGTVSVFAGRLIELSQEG
UniProt P02714, sequence (whole entry, looked up): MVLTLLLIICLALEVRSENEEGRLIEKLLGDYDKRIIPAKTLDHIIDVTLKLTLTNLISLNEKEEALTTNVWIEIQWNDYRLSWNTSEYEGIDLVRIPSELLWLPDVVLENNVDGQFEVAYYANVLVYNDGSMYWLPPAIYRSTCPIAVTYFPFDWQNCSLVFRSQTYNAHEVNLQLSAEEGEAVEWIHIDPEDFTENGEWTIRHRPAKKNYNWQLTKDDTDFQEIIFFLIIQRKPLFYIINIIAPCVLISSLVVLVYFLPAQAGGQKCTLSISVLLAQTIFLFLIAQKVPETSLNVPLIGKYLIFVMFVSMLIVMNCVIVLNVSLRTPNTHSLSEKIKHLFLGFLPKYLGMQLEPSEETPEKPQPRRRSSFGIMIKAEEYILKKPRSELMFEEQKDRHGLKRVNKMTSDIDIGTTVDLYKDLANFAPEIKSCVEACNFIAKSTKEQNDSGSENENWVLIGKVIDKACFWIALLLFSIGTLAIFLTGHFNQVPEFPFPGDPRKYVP
UniProt P28223, sequence (whole entry, looked up): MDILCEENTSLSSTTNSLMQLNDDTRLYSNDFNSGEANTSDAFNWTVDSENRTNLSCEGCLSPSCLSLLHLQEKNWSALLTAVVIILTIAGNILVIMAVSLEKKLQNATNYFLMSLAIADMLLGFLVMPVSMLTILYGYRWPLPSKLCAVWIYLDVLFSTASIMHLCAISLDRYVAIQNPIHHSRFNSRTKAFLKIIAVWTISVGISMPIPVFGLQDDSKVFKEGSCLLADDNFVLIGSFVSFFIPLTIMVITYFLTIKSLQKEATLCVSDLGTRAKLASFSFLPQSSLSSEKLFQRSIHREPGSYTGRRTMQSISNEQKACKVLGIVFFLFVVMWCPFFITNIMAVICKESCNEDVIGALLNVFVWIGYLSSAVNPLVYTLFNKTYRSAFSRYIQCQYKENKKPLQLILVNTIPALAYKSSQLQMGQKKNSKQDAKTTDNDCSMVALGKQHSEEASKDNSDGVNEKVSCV
UniProt P23977, sequence (whole entry, looked up): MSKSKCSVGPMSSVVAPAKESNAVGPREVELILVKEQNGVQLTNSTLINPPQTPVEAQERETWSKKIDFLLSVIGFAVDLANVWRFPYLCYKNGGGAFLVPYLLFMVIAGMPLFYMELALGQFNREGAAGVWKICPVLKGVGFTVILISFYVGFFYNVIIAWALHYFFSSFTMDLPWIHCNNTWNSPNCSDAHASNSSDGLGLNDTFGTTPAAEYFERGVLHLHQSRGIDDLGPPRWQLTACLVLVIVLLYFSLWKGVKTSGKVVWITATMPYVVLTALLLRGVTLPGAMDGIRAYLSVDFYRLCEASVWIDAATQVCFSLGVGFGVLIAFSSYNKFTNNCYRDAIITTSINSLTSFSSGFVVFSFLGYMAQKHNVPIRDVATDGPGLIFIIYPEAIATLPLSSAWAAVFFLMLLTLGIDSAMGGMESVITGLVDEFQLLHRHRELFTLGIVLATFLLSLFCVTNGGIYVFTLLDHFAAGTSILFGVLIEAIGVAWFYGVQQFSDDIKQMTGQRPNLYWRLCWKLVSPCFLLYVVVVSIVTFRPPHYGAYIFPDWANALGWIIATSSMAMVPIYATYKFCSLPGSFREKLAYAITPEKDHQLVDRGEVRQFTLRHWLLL
UniProt P94556, sequence (whole entry, looked up): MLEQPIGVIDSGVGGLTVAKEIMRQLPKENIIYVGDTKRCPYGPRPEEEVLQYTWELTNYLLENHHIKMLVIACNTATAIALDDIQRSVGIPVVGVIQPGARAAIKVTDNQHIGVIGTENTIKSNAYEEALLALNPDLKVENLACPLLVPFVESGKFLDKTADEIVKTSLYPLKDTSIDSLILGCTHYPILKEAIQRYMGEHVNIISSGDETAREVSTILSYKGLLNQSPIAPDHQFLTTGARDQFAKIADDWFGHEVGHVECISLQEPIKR
UniProt Q5U3Y7, sequence (whole entry, looked up): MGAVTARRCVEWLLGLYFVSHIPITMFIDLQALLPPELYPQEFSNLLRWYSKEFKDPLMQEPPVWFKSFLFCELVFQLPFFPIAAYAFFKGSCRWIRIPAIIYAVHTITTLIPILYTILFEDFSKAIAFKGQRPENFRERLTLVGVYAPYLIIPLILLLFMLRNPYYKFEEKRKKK

| SMILES | target or system | test | system | setting | quantity | value |
| --- | --- | --- | --- | --- | --- | --- |
| C[C@@H]1O[C@@H](O[C@H]2C[C@@H](O)[C@]3(CO)[C@H]4[C@H](O)C[C@]5(C)[C@@H](C6=CC(=O)OC6)CC[C@]5(O)[C@@H]4CC[C@]3(O)C2)[C@H](O)[C@H](O)[C@H]1O | Na+/K+-ATPase human recombinant | enzyme activity, inhibitor |  |  | Ki | 0.097 µM |
| N#Cc1c(N)nc(SCC(N)=O)c(C#N)c1-c1ccc(OCC2CC2)cc1 | Adenosine receptor A3 (Mus musculus, UniProt Q61618) | binding, antagonist |  | mouse receptor | Ki | 3.92 µM |
| CN1[C@@H](CC(=O)c2ccccc2)CCC[C@H]1C[C@H](O)c1ccccc1 | Sodium-dependent dopamine transporter (Slc6a3, Rattus norvegicus, UniProt P23977) | inhibitor |  |  | Ki | 31.6 µM |
| C=C1CC[C@@H]2[C@@H](C1)c1c(OC)cc(C(C)(C)CCCCCC)cc1OC2(C)C | Cannabinoid receptor 2 (CNR2, Homo sapiens, UniProt P34972) | binding |  |  | Ki | 0.0118 µM |
| CC=O | yeast alcohol dehydrogenase H44R | inhibitor, product inhibition, slope constant |  | pH 7.3, 30 °C | Ki | 1800 µM |
| CN1[C@@H](CCc2ccccc2)CCC[C@H]1CCc1ccccc1 | alpha7 nicotinic acetylcholine receptor | binding |  | together with: [3H]methyllycaconitine | Ki | 43.1 µM |
| CS(=O)(=O)Nc1ccc(SSc2ccc(NS(C)(=O)=O)cc2)cc1 | Cocaine esterase (CES2, Homo sapiens, UniProt O00748) |  |  |  | Ki | > 100 µM |
| C=CCN(CC=C)CCc1c[nH]c2ccccc12 | Histamine H3 receptor | binding |  | together with: [3H]α-methylhistamine | Ki | > 10 µM |
| Nc1ncnc2c1nc(Br)n2C1OC2COP(O)(=S)OC2C1O (centres unmarked) | PDE5 | cyclic nucleotide hydrolysis, substrate or inhibitor, isothermal titration calorimetry |  |  | Km or Ki | 94.7 µM |
| COc1ccc(CN(C(=O)[C@@H](N)Cc2c(C)cc(C(N)=O)cc2C)[C@@H](C)c2nc(-c3ccccc3)c[nH]2)cc1C(=O)O | OATP1B1 | transport, inhibitor |  | 162-fold plasma level at 100 mg | inhibition | 32.6% |
| C=C(C)[C@@]12C[C@@H](C)C34OC(Cc5ccccc5)(OC1[C@@H]3C=C(COC(=O)Cc1cc(Br)c(N)c(OC)c1)C[C@]1(O)C(=O)C(C)=C[C@@H]41)O2 (some centres unmarked) | Transient receptor potential cation channel subfamily V member 1 (Trpv1, Rattus norvegicus, UniProt O35433) | calcium uptake, antagonist, 45Ca2+ uptake | CHO |  | Ki | 0.00281 µM |
| CN1[C@H]2CC[C@@H]1[C@@H](C(=O)N1CCCC1)[C@@H](c1ccc(I)cc1)C2 | Slc6a2 | reuptake, inhibitor | rat brain synaptosomes |  | Ki | 0.0195 ± 0.0006 µM |
| O=C(NO)c1ccccc1 | MR Y54W | competitive inhibitor |  | together with: 15 mM Mg2+ | Ki | 110 ± 10 µM |
| CCCCCCCCCCCCCCCCCCSC1CC(=O)N(CCC(=O)NCCOCCOCCOCCOCCOCCOCCOCCOCCOCCOCCOCCOCCOCCOCCOCCOCCOCCOCCOCCOCCOCCOCCOCCOCCC(=O)NC(COCCC(=O)NCCOCCOCCOCCOCCC(=O)NCCCC[C@@H](NC(=O)CNC(=O)[C@@H](CC(C)C)NC(=O)[C@@H](CCC(=O)O)NC(=O)[C@H]2CSSC[C@@H](NC(=O)[C@H]3CCCN3C(=O)[C@@H](Cc3c[nH]cn3)NC(C)=O)C(=O)N[C@H](CC(=O)O)C(=O)N[C@H](Cc3ccc(O)cc3)C(=O)N3CCC[C@@H]3C(=O)N[C@H](CCC(=O)O)C(=O)N[C@H](Cc3c[nH]c4ccccc34)C(=O)N[C@H](CCC(N)=O)C(=O)N[C@H](Cc3c[nH]c4ccccc34)C(=O)N[C@H](CC(C)C)C(=O)N2)C(N)=O)(COCCC(=O)NCCOCCOCCOCCOCCC(=O)NCCCC[C@@H](NC(=O)CNC(=O)[C@@H](CC(C)C)NC(=O)[C@@H](CCC(=O)O)NC(=O)[C@H]2CSSC[C@@H](NC(=O)[C@H]3CCCN3C(=O)[C@@H](Cc3c[nH]cn3)NC(C)=O)C(=O)N[C@H](CC(=O)O)C(=O)N[C@H](Cc3ccc(O)cc3)C(=O)N3CCC[C@@H]3C(=O)N[C@H](CCC(=O)O)C(=O)N[C@H](Cc3c[nH]c4ccccc34)C(=O)N[C@H](CCC(N)=O)C(=O)N[C@H](Cc3c[nH]c4ccccc34)C(=O)N[C@H](CC(C)C)C(=O)N2)C(N)=O)COCCC(=O)NCCOCCOCCOCCOCCC(=O)NCCCC[C@@H](NC(=O)CNC(=O)[C@@H](CC(C)C)NC(=O)[C@@H](CCC(=O)O)NC(=O)[C@H]2CSSC[C@@H](NC(=O)[C@H]3CCCN3C(=O)[C@@H](Cc3c[nH]cn3)NC(C)=O)C(=O)N[C@H](CC(=O)O)C(=O)N[C@H](Cc3ccc(O)cc3)C(=O)N3CCC[C@@H]3C(=O)N[C@H](CCC(=O)O)C(=O)N[C@H](Cc3c[nH]c4ccccc34)C(=O)N[C@H](CCC(N)=O)C(=O)N[C@H](Cc3c[nH]c4ccccc34)C(=O)N[C@H](CC(C)C)C(=O)N2)C(N)=O)C1=O (some centres unmarked) | HIV-1 | viral entry, luciferase reporter | HOS-CD4-CCR5, JRFL Env pseudovirus |  | IC50 | 0.087 ± 0.012 nM |
| CC(C)CNCC(N)P(=O)(O)O (centres unmarked) | Cytosol aminopeptidase | inhibitor |  |  | Ki | > 800 µM |
| OC(Cn1cncn1)(Cn1cncn1)c1ccc(F)cc1F | Cytochrome P450 3A5 (CYP3A5, Homo sapiens, UniProt P20815) | inhibitor |  | together with: midazolam substrate | Ki | 84.6 ± 12.9 µM |

| SMILES | target or system | test | system | setting | quantity | value |
| --- | --- | --- | --- | --- | --- | --- |
| CNC(C)C(=O)c1ccc2c(c1)OCO2 (centres unmarked) | Slc6a2 |  |  |  | IC50 | 1030 ± 162 nM |
| COC1C2OP(O)(=S)OCC2OC1n1c(Sc2ccc(Cl)cc2)nc2c(N)ncnc21 (centres unmarked) | PDE6 | cyclic nucleotide hydrolysis, substrate or inhibitor, isothermal titration calorimetry |  |  | Km or Ki | 1.05 µM |
| O=C(c1ccc(F)cc1)C1CCN([C@@H]2Cc3ccccc3C[C@H]2O)CC1 (relative stereo) | Sigma intracellular receptor 2 (Tmem97, Rattus norvegicus, UniProt Q5U3Y7) |  | rat liver membranes |  | Ki | 0.251 ± 0.0392 µM |
| CCCNCC(N)P(=O)(O)O (centres unmarked) | Cytosol aminopeptidase | inhibitor |  |  | Ki | > 800 µM |
| COc1ccc(CC[C@H]2CCC[C@@H](CCc3ccc(OC)cc3)N2C[C@@H](O)CO)cc1 (relative stereo) | alpha7 nicotinic acetylcholine receptor | binding |  | together with: [3H]methyllycaconitine | Ki | > 100 µM |
| C=CCN(CC=C)CCc1c[nH]c2ccc(F)cc12 | Histamine H3 receptor |  |  |  | Ki | 2.09 µM |
| O=c1c(-c2ccccc2)ccc2n1C[C@@H]1CNC[C@H]2C1 | CHRNA1/CHRNG/chrnd |  |  |  | Ki | > 10 µM |
| CN(C(=N)Nc1cccc2ccccc12)c1cccc(I)c1 | NMDA receptor | radioligand binding |  | together with: [3H]MK801 | Ki | 0.00465 µM |
| CCN[C@@H](C)Cc1ccc2ccccc2c1 | serotonin transporter | binding |  | K+-free high Na+ buffer | Ki | 0.004 µM |
| C[C@]12CCC(=O)CC1=CC[C@@H]1[C@@H]2CC[C@]2(C)C(=O)CC[C@@H]12 | ketosteroid isomerase Y30F/Y55F | substrate |  | pH 7.0, 3.3 % methanol | Km | 50.2 ± 5.5 µM |
| C=C1C[C@@H]2C[C@@H]3CC(=C)C[C@H](/C=C/C(C)(C)[C@]4(O)O[C@@H](C/C(=C\C(=O)OC)[C@@H]4OC(=O)/C=C/C=C/CCC)C[C@H]([C@@H](C)O)OC(=O)C[C@H](O)C[C@H](C1)O2)O3 | Protein kinase C alpha type (PRKCA, Homo sapiens, UniProt P17252) | binding, competitive |  |  | Ki | 0.0007 ± 1e-05 µM |
| CN1C/C(=C\c2ccc(Cl)cc2Cl)C/C(=C\c2ccc(Cl)cc2Cl)C1 | alpha7 nicotinic acetylcholine receptor | binding |  | together with: [3H]methyllycaconitine | Ki | > 100 µM |
| CC(C)CN(C[C@@H](O)[C@H](Cc1ccccc1)NC(=O)O[C@H]1CCOC1)S(=O)(=O)c1ccc(N)cc1 | PR S17 variant | isothermal titration calorimetry |  |  | Ki | 0.011 µM |
| O=S(=O)(O)c1ccc(O)c(S(=O)(=O)O)c1 | racE (Bacillus subtilis, UniProt P94556) |  |  |  | Ki | 58 ± 13 µM |
| COc1ccc2[nH]cc(CCNCc3ccc(Cl)cc3)c2c1 | 5-hydroxytryptamine receptor 2A (HTR2A, Homo sapiens, UniProt P28223) | binding |  | together with: agonist radioligand | Ki | 0.105 µM |
| O=c1c(-c2ccc3c(c2)OCO3)ccc2n1C[C@@H]1CNC[C@H]2C1 | CHRNA1/CHRNG/chrnd |  |  |  | Ki | > 10 µM |
